{"data": "Measured values of several laboratories", "note": "Each numbered part is a random draw from the data of one study; scales do not carry over between parts. Changes are numbered by the printed parent chain.", "UniProt Q13705, sequence (whole entry, looked up)": "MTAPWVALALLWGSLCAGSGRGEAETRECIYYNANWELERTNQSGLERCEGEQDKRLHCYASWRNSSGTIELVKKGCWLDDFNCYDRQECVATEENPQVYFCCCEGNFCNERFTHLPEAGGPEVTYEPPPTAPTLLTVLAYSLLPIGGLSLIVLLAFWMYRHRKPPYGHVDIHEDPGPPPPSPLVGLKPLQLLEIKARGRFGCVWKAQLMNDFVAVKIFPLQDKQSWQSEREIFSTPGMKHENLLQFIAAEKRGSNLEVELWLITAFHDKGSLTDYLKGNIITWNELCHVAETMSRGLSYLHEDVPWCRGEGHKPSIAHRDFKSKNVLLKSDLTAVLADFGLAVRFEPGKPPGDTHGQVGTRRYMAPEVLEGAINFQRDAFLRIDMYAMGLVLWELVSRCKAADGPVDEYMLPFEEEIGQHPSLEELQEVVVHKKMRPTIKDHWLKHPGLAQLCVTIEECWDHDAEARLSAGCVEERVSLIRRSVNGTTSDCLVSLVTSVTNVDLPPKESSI", "UniProt Q9BWU1, sequence (whole entry, looked up)": "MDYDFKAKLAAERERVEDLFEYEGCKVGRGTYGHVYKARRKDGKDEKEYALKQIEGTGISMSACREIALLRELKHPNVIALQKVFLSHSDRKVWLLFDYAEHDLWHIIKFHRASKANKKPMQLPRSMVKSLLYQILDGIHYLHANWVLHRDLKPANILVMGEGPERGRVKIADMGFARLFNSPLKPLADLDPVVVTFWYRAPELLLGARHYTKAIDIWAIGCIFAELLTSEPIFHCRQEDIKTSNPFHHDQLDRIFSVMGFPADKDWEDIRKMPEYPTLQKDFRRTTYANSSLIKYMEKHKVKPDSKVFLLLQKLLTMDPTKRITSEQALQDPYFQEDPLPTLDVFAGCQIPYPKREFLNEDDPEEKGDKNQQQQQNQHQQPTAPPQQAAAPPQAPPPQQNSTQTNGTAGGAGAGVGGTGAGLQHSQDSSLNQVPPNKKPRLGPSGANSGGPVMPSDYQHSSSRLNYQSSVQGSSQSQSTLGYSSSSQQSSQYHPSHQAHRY", "UniProt P54753, sequence (whole entry, looked up)": "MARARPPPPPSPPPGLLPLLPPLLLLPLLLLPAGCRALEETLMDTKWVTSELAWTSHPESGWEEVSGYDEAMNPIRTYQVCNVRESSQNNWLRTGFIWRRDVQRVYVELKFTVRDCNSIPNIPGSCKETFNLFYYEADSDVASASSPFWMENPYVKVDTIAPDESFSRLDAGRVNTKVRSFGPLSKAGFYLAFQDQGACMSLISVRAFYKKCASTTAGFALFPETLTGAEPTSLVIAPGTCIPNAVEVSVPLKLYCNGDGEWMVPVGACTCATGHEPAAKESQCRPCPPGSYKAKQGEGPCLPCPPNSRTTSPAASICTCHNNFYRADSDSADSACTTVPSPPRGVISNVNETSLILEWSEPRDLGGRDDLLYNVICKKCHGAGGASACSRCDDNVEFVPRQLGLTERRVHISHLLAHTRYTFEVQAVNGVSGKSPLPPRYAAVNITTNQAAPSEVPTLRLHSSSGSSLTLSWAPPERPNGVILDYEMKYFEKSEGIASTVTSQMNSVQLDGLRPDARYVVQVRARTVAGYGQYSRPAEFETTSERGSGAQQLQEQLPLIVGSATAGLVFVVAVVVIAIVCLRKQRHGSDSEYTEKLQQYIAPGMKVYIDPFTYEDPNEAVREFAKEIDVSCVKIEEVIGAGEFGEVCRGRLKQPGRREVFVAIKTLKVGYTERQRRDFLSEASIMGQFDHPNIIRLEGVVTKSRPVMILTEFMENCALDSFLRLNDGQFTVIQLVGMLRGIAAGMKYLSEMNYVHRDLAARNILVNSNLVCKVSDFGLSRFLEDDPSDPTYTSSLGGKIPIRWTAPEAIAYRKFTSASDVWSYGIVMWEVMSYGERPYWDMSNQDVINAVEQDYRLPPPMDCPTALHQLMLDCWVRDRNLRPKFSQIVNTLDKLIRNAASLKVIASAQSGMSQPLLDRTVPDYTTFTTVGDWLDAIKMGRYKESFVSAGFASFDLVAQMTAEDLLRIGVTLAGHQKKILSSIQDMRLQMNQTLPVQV", "UniProt Q9P286, sequence (whole entry, looked up)": "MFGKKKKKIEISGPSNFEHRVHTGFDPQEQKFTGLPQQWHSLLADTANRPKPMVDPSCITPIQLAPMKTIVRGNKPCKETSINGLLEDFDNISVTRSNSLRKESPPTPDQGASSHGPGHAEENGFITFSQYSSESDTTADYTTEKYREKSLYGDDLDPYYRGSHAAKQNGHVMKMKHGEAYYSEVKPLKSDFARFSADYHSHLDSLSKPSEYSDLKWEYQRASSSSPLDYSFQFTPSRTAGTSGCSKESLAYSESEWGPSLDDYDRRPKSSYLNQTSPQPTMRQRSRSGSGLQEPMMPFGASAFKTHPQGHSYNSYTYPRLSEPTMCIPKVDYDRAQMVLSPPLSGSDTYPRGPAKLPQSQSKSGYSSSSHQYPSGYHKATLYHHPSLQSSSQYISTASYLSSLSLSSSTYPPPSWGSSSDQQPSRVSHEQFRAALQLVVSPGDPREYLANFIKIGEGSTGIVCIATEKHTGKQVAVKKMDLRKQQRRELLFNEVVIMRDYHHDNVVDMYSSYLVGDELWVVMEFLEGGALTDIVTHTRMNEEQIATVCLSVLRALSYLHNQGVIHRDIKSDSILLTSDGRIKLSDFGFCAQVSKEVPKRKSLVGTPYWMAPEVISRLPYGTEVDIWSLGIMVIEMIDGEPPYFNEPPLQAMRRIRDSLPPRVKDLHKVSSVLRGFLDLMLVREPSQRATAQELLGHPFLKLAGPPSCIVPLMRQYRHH", "UniProt O14757, sequence (whole entry, looked up)": "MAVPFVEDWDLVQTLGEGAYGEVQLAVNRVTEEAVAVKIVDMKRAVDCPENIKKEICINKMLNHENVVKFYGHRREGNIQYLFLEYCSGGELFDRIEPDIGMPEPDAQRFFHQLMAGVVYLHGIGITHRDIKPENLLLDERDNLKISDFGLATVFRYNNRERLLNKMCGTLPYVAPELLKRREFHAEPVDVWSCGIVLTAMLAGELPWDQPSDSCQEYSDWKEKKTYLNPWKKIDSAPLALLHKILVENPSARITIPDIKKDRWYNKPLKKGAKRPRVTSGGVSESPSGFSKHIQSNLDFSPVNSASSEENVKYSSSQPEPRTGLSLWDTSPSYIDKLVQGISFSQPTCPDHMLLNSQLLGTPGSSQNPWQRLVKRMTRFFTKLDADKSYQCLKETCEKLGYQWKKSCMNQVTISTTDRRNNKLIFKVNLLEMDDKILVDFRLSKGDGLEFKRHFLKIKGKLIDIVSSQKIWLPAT"}
{"data": "Sample 1", "SMILES": "CN([C@@H]1CCc2c(CC(=O)O)c3cc(S(C)(=O)=O)ccc3n2C1)S(=O)(=O)c1ccc(F)cc1", "tested at": "1 µM"}
{"target": "Activin receptor type-2B (ACVR2B, Homo sapiens, UniProt Q13705)", "read-out": "cell-free assay", "technique": "competition with immobilised ligand", "remaining binding": "100%"}
{"target": "Serine/threonine-protein kinase PAK 5 (PAK5, Homo sapiens, UniProt Q9P286)", "read-out": "cell-free assay", "technique": "competition with immobilised ligand", "remaining binding": "100%"}
{"target": "Tyrosine-protein kinase ABL1, non-phosphorylated (ABL1, Homo sapiens, UniProt P00519, T315I)", "read-out": "cell-free assay", "technique": "competition with immobilised ligand", "remaining binding": "88%"}
{"target": "Ephrin type-B receptor 3 (EPHB3, Homo sapiens, UniProt P54753)", "read-out": "cell-free assay", "technique": "competition with immobilised ligand", "remaining binding": "90%"}
{"target": "Serine/threonine-protein kinase Chk1 (CHEK1, Homo sapiens, UniProt O14757)", "read-out": "cell-free assay", "technique": "competition with immobilised ligand", "remaining binding": "100%"}
{"target": "Cyclin-dependent kinase 19 (CDK19, Homo sapiens, UniProt Q9BWU1)", "mode": "binder", "technique": "KINOMEscan competition binding", "reference": "DMSO", "remaining binding": "100%"}
{"target": "Death-associated protein kinase 1 (DAPK1, Homo sapiens, UniProt P53355)", "read-out": "cell-free assay", "technique": "competition with immobilised ligand", "remaining binding": "100%"}
{"data": "Sample 2", "target": "Serine/threonine-protein kinase PLK2 (PLK2, Homo sapiens, UniProt Q9NYY3)", "read-out": "enzyme activity", "mode": "inhibitor", "tested at": "0.5 µM", "reference": "control", "UniProt Q9NYY3, sequence (whole entry, looked up)": "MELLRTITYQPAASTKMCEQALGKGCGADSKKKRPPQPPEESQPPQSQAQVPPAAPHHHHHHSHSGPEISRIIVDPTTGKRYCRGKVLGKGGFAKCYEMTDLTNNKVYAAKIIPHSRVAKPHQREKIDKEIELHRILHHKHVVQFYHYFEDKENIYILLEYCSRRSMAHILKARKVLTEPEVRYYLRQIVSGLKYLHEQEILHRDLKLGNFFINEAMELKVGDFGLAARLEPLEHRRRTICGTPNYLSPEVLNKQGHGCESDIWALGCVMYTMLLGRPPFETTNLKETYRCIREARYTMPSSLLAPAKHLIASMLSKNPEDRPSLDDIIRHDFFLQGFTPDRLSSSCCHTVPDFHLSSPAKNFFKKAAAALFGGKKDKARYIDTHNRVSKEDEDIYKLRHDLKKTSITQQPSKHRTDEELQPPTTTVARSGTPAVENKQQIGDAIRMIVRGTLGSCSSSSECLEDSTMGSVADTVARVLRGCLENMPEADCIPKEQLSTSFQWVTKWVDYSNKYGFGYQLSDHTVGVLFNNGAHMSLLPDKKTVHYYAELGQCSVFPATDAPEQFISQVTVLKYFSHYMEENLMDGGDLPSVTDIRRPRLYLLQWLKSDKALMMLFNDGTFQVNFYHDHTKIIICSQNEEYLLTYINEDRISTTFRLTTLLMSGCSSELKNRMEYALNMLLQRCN"}
{"Compound": "COc1ccc(OC)c2c(=S)c3ccccc3[nH]c12", "remaining activity": "97.6%"}
{"Compound": "O=C(CCCc1ccc(-c2ccccc2F)cc1)Nc1ccc(O)cc1", "remaining activity": "102%"}
{"Compound": "COc1ccc(C(=O)Nc2sc3c(c2C(N)=O)CCCC3)cc1OC", "remaining activity": "106%"}
{"Compound": "O=C1NC(=O)C(c2cn(CCCn3ccnc3)c3ccccc23)=C1Nc1ccccc1", "remaining activity": "102%"}
{"Compound": "Nc1ncnc2n[nH]c(Nc3ccc(F)cc3)c12", "remaining activity": "101%"}
{"Compound": "OCC(O)CCON=C1C(c2c(O)[nH]c3ccccc23)=Nc2ccccc21 (stereo not shown)", "remaining activity": "105%"}
{"Compound": "O=S(=O)(c1cccc2cnccc12)N1CCCNCC1", "remaining activity": "100%"}
{"Compound": "Cc1ccc(Nc2nccc(N(C)c3ccc4c(C)n(C)nc4c3)n2)cc1S(N)(=O)=O", "remaining activity": "101%"}
{"Compound": "N#CC(C#N)=C(N)/C(C#N)=C/c1ccc(O)cc1", "remaining activity": "99.9%"}
{"Compound": "Nc1[nH]nc2nc3ccccc3nc12", "remaining activity": "101%"}
{"Compound": "COc1cc2ncnc(Nc3ccc(Oc4ccccc4)cc3)c2cc1OC", "remaining activity": "104%"}
{"Compound": "COc1cc2ncnc(Nc3ccc(F)c(Cl)c3)c2cc1OCCCN1CCOCC1", "remaining activity": "100%"}
{"Compound": "C#Cc1cccc(Nc2ncnc3cc(OCCOC)c(OCCOC)cc23)c1", "remaining activity": "104%"}
{"Compound": "COc1cc2nccc(Oc3ccc(NC(=S)NC(=O)c4ccccc4C)cc3)c2cc1OC", "remaining activity": "99.5%"}
{"data": "Sample 3", "target": "Phosphate system positive regulatory protein PHO4, full length, GST-tagged (PHO4, Saccharomyces cerevisiae, UniProt P07270, residues 1-312)", "technique": "competition protein-binding microarray", "molecule type": "double-stranded DNA, one strand shown", "matrix": "in vitro", "tested at": "2 µM", "notes": "whole 60-bp probe, lowest competitor level", "with": "Cbf1 competitor, 0.05 µM", "reading": "higher = stronger binding", "shared flanks, not repeated": "… GTCTTGATTCGCTTGACGCTGCTG", "Construct (chain)": "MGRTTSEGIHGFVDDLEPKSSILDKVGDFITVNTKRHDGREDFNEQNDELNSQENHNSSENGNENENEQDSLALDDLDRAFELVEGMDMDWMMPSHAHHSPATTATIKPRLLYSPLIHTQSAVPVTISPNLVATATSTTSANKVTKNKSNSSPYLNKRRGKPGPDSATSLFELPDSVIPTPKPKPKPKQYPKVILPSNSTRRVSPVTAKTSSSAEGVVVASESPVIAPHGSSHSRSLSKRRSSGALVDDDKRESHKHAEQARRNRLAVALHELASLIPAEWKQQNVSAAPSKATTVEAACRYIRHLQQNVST"}
{"Strand": "ATCGAATTCCTTTGTAACGTGCAAAGCATTTTATAG", "fluorescence intensity [a.u.]": 11100}
{"Strand": "CGCCGGGCGGCTTTGCACGTTTGAACAAGTATATCC", "fluorescence intensity [a.u.]": 10400}
{"Strand": "ATCTGTGCCAACAAGTACATGACAACTGTCTCCGGT", "fluorescence intensity [a.u.]": 4460}
{"Strand": "CTGTTTCCATTTTGCCGCGTGGAGGCATCTGTCCAA", "fluorescence intensity [a.u.]": 9650}
{"Strand": "CTAACGAAGGTTTGTCACAACACTTACAAGCCAAGT", "fluorescence intensity [a.u.]": 3920}
{"Strand": "AATTTCCGGCTTCTTCACGTTATGCACCATCACCTT", "fluorescence intensity [a.u.]": 4440}
{"Strand": "CGGGGTTAAGTTTGTCACATCACTTGCTTGCAGCAG", "fluorescence intensity [a.u.]": 3970}
{"Strand": "CATACCCAACCTTGAGGCGTGGGTGAAGATATTTGT", "fluorescence intensity [a.u.]": 8970}
{"data": "Sample 4", "target": "CCNA2, cyclin fold, Cln2 fusion (human)", "technique": "yeast growth competition, sequencing", "matrix": "yeast", "notes": "strong parent motif", "reference": "not given", "reading": "higher = stronger binding", "parent": "SCAPER docking peptide (human); SNARRSLNFGGST"}
{"Variant": "A3D", "normalised enrichment score": -0.532}
{"Variant": "F9H", "normalised enrichment score": -0.0688}
{"Variant": "S12Q", "normalised enrichment score": 5.97}
{"Variant": "S1M", "normalised enrichment score": 5.99}
{"Variant": "R4F", "normalised enrichment score": 2.27}
{"Variant": "R5C", "normalised enrichment score": 2.83}
{"Variant": "R4C", "normalised enrichment score": 4.96}
{"Variant": "A3E", "normalised enrichment score": 0.893}
{"note": "A few entries again (sample 3):"}
{"Strand": "CGCCGGGCGGCTTTGCACGTTTGAACAAGTATATCC", "fluorescence intensity [a.u.]": 10400}
{"Strand": "ATCTGTGCCAACAAGTACATGACAACTGTCTCCGGT", "fluorescence intensity [a.u.]": 4460}
